Experimental data collected from several papers.
Compare with care: the assays were run in different laboratories. ± marks the error that the study gave.

For `N=C(N)NCCC[C@H](NC(=O)[C@H](CCCCN)NC(=O)[C@H](CCC(N)=O)NC(=O)CCOCCOCCOCCNC(=O)CN1CCN(CC(=O)O)CCN(CC(=O)O)CCN(CC(=O)O)CC1)C(=O)N[C@@H](CCCCN)C(=O)N[C@@H](CCCNC(=N)N)C(=O)N[C@@H](CCCCN)C(=O)N[C@@H](CCCCN)C(=O)N[C@@H](CO)C(=O)N[C@@H](CCCNC(=N)N)C(=O)N[C@@H](Cc1ccc(O)cc1)C(=O)N[C@@H](CCCCN)C(=O)N[C@@H](CO)C(=O)O` [copper-64 labelled], the tissue uptake was 1.83 ± 0.39 %ID/g (male C57BL/6 mice, B16-F10 tumour, small intestine; intravenous, 60 min).
The tissue uptake of `N=C(N)NCCC[C@@H]1NC(=O)[C@H](CCCCNC(=O)CC[C@H](NC(=O)CCOCCOCCOCCOCCNC(=O)CN2CCN(CC(=O)O)CCN(CC(=O)O)CCN(CC(=O)O)CC2)C(=O)NCCCC[C@@H]2NC(=O)[C@@H](Cc3ccccc3)NC(=O)[C@H](CC(=O)O)NC(=O)CNC(=O)[C@H](CCCNC(=N)N)NC2=O)NC(=O)[C@@H](Cc2ccccc2)NC(=O)[C@H](CC(=O)O)NC(=O)CNC1=O` [indium-111 labelled] is reported as 2.57 ± 0.42 %ID/g (female athymic nude mice, liver; intravenous, 3 µCi, 1 h, U-87 MG glioma xenograft).
For `CSCC[C@H](NC(=O)[C@H](CC(C)C)NC(=O)[C@H](Cc1c[nH]cn1)NC(=O)CNC(=O)[C@@H](NC(=O)[C@H](C)NC(=O)[C@H](Cc1c[nH]c2ccccc12)NC(=O)[C@H](CCC(N)=O)NC(=O)CNC(=O)[C@H](CO)NC(=O)CNC(=O)CCCCCCCNC(=O)CCC(=O)Nc1ccc(CNC23CNCCNCC(N)(CNCCNC2)CNCCNC3)cc1)C(C)C)C(N)=O` [copper-64 labelled], the tissue uptake was 0.392 ± 0.022 %ID/g (female SCID mice, PC-3 xenograft, muscle; intravenous, 0.6 MBq, 1 h).
`N=C(N)NCCC[C@@H]1NC(=O)[C@H](CCCCNC(=O)CCOCCOCCOCCOCCNC(=O)CC[C@H](NC(=O)CCOCCOCCOCCOCCNC(=O)CC[C@H](NC(=O)CN2CCN(CC(=O)O)CCN(CC(=O)O)CCN(CC(=O)O)CC2)C(=O)NCCOCCOCCOCCOCCC(=O)N[C@@H](CCC(=O)NCCOCCOCCOCCOCCC(=O)NCCCC[C@@H]2NC(=O)[C@@H](Cc3ccccc3)NC(=O)[C@H](CC(=O)O)NC(=O)CNC(=O)[C@H](CCCNC(=N)N)NC2=O)C(=O)NCCOCCOCCOCCOCCC(=O)NCCCC[C@@H]2NC(=O)[C@@H](Cc3ccccc3)NC(=O)[C@H](CC(=O)O)NC(=O)CNC(=O)[C@H](CCCNC(=N)N)NC2=O)C(=O)NCCOCCOCCOCCOCCC(=O)NCCCC[C@@H]2NC(=O)[C@@H](Cc3ccccc3)NC(=O)[C@H](CC(=O)O)NC(=O)CNC(=O)[C@H](CCCNC(=N)N)NC2=O)NC(=O)[C@@H](Cc2ccccc2)NC(=O)[C@H](CC(=O)O)NC(=O)CNC1=O` [indium-111 labelled] has a tissue uptake of 8.48 ± 2.75 %ID/g (athymic nude mice, female, U-87 MG glioma xenograft, U-87 MG tumour; intravenous, 3 µCi, 4 h).
The tissue ratio of `N=C(N)NCCC[C@@H]1NC(=O)[C@H](CCCCNC(=O)CCOCCOCCOCCOCCNC(=O)CC[C@H](NC(=O)[C@H](CCCCNC(=O)c2ccc(NN)nc2)NC(=O)c2ccc(NN)nc2)C(=O)NCCOCCOCCOCCOCCC(=O)NCCCC[C@@H]2NC(=O)[C@@H](Cc3ccccc3)NC(=O)[C@H](CC(=O)O)NC(=O)CNC(=O)[C@H](CCCNC(=N)N)NC2=O)NC(=O)[C@@H](Cc2ccccc2)NC(=O)[C@H](CC(=O)O)NC(=O)CNC1=O` [technetium-99m labelled] is reported as 3.66 ± 0.13 (female athymic nude mice; intravenous, 1 h, U-87 MG glioma xenograft; baseline: tumour over liver).
`CC(C)C[C@H](NC(=O)[C@H](Cc1ccc(O)cc1)NC(=O)[C@@H](CCCNC(=N)N)NC(=O)[C@@H](CO)NC(=O)[C@H](Cc1ccccc1)NC(=O)[C@H](CC1CCCCC1)NC(=O)[C@H](CC(=O)O)NC(=O)CCC(C(=O)O)N1CCCN2CCN(CCCN(CC(=O)O)CC2)CC1)C(=O)N[C@@H](Cc1c[nH]c2ccccc12)C(=O)N[C@@H](CO)C(=O)O` (stereo partly drawn) [copper-64 labelled] has a tissue uptake of 0.5 ± 0.2 %ID/g (female NMRI nude mice, muscle; 1 h p.i.).
`N=C(N)NCCC[C@@H]1NC(=O)[C@H](CCCCNC(=O)CCOCCOCCOCCOCCNC(=O)CC[C@H](NC(=O)CCOCCOCCOCCOCCNC(=O)[C@H](CCCCNC(=O)c2ccc(NN)nc2)NC(=O)c2ccc(NN)nc2)C(=O)NCCOCCOCCOCCOCCC(=O)NCCCC[C@@H]2NC(=O)[C@@H](Cc3ccccc3)NC(=O)[C@H](CC(=O)O)NC(=O)CNC(=O)[C@H](CCCNC(=N)N)NC2=O)NC(=O)[C@@H](Cc2ccccc2)NC(=O)[C@H](CC(=O)O)NC(=O)CNC1=O` [technetium-99m labelled] has a tissue ratio of 2.98 ± 0.18 (female athymic nude mice; intravenous, 1 h, U-87 MG glioma xenograft; baseline: tumour over liver).
With `CSCC[C@H](NC(=O)[C@H](CC(C)C)NC(=O)[C@H](Cc1c[nH]cn1)NC(=O)CNC(=O)[C@@H](NC(=O)[C@H](C)NC(=O)[C@H](Cc1c[nH]c2ccccc12)NC(=O)[C@H](CCC(N)=O)NC(=O)CCCCCCCNC(=O)CCC(=O)Nc1ccc(CNC23CNCCNCC(N)(CNCCNC2)CNCCNC3)cc1)C(C)C)C(N)=O` [copper-64 labelled] the tissue uptake was 1.25 ± 0.106 %ID/g (female SCID mice, PC-3 xenograft, lung; intravenous, 0.6 MBq, 1 h).
For `N=C(N)NCCC[C@@H]1NC(=O)[C@H](CCCCNC(=O)CC[C@H](NC(=O)CCOCCOCCOCCOCCNC(=O)CC[C@H](NC(=O)CN2CCN(CC(=O)O)CCN(CC(=O)O)CCN(CC(=O)O)CC2)C(=O)NCCOCCOCCOCCOCCC(=O)N[C@@H](CCC(=O)NCCCC[C@@H]2NC(=O)[C@@H](Cc3ccccc3)NC(=O)[C@H](CC(=O)O)NC(=O)CNC(=O)[C@H](CCCNC(=N)N)NC2=O)C(=O)NCCCC[C@@H]2NC(=O)[C@@H](Cc3ccccc3)NC(=O)[C@H](CC(=O)O)NC(=O)CNC(=O)[C@H](CCCNC(=N)N)NC2=O)C(=O)NCCCC[C@@H]2NC(=O)[C@@H](Cc3ccccc3)NC(=O)[C@H](CC(=O)O)NC(=O)CNC(=O)[C@H](CCCNC(=N)N)NC2=O)NC(=O)[C@@H](Cc2ccccc2)NC(=O)[C@H](CC(=O)O)NC(=O)CNC1=O` [indium-111 labelled], the tissue uptake was 0.12 ± 0.04 %ID/g (female athymic nude mice, brain; intravenous, 3 µCi, 1 h, U-87 MG glioma xenograft).
`N=C(N)NCCC[C@@H]1NC(=O)[C@H](CCCCNC(=O)CNC(=O)CNC(=O)CNC(=O)CC[C@H](NC(=O)CNC(=O)CNC(=O)CNC(=O)[C@H](CCCCNC(=O)c2ccc(NN)nc2)NC(=O)c2ccc(NN)nc2)C(=O)NCC(=O)NCC(=O)NCC(=O)NCCCC[C@@H]2NC(=O)[C@@H](Cc3ccccc3)NC(=O)[C@H](CC(=O)O)NC(=O)CNC(=O)[C@H](CCCNC(=N)N)NC2=O)NC(=O)[C@@H](Cc2ccccc2)NC(=O)[C@H](CC(=O)O)NC(=O)CNC1=O` [technetium-99m labelled] gave a tissue ratio of 2.52 ± 0.18 (female athymic nude mice; intravenous, 1 h, U-87 MG glioma xenograft; baseline: tumour over lung).
`N=C(N)NCCC[C@@H]1NC(=O)[C@H](CCCCNC(=O)CNC(=O)CNC(=O)CNC(=O)CC[C@H](NC(=O)CCOCCOCCOCCOCCNC(=O)CC[C@H](NC(=O)CN2CCN(CC(=O)O)CCN(CC(=O)O)CCN(CC(=O)O)CC2)C(=O)NCCOCCOCCOCCOCCC(=O)N[C@@H](CCC(=O)NCC(=O)NCC(=O)NCC(=O)NCCCC[C@@H]2NC(=O)[C@@H](Cc3ccccc3)NC(=O)[C@H](CC(=O)O)NC(=O)CNC(=O)[C@H](CCCNC(=N)N)NC2=O)C(=O)NCC(=O)NCC(=O)NCC(=O)NCCCC[C@@H]2NC(=O)[C@@H](Cc3ccccc3)NC(=O)[C@H](CC(=O)O)NC(=O)CNC(=O)[C@H](CCCNC(=N)N)NC2=O)C(=O)NCC(=O)NCC(=O)NCC(=O)NCCCC[C@@H]2NC(=O)[C@@H](Cc3ccccc3)NC(=O)[C@H](CC(=O)O)NC(=O)CNC(=O)[C@H](CCCNC(=N)N)NC2=O)NC(=O)[C@@H](Cc2ccccc2)NC(=O)[C@H](CC(=O)O)NC(=O)CNC1=O` [indium-111 labelled] has a tissue uptake of 1.98 ± 0.31 %ID/g (female athymic nude mice, kidney; intravenous, 3 µCi, 24 h, U-87 MG glioma xenograft).
`N=C(N)NCCC[C@@H]1NC(=O)[C@H](CCCCNC(=O)CC[C@H](NC(=O)[C@H](CCCCNC(=O)c2ccc(NN)nc2)NC(=O)c2ccc(NN)nc2)C(=O)NCCCC[C@@H]2NC(=O)[C@@H](Cc3ccccc3)NC(=O)[C@H](CC(=O)O)NC(=O)CNC(=O)[C@H](CCCNC(=N)N)NC2=O)NC(=O)[C@@H](Cc2ccccc2)NC(=O)[C@H](CC(=O)O)NC(=O)CNC1=O` [technetium-99m labelled] gave a tissue ratio of 1.4 ± 0.28 (female athymic nude mice; intravenous, 1 h, U-87 MG glioma xenograft; baseline: tumour over lung).

Repeated from above:
`CC(C)C[C@H](NC(=O)[C@H](Cc1ccc(O)cc1)NC(=O)[C@@H](CCCNC(=N)N)NC(=O)[C@@H](CO)NC(=O)[C@H](Cc1ccccc1)NC(=O)[C@H](CC1CCCCC1)NC(=O)[C@H](CC(=O)O)NC(=O)CCC(C(=O)O)N1CCCN2CCN(CCCN(CC(=O)O)CC2)CC1)C(=O)N[C@@H](Cc1c[nH]c2ccccc12)C(=O)N[C@@H](CO)C(=O)O` (stereo partly drawn) [copper-64 labelled] has a tissue uptake of 0.5 ± 0.2 %ID/g (female NMRI nude mice, muscle; 1 h p.i.).
